Assay results pooled from the literature.
Each line is one published result; not all experiments were run side by side.
BDKRB2: B2 bradykinin receptor (BDKRB2, Homo sapiens, UniProt P30411)
UniProt P30411, sequence (whole entry, looked up): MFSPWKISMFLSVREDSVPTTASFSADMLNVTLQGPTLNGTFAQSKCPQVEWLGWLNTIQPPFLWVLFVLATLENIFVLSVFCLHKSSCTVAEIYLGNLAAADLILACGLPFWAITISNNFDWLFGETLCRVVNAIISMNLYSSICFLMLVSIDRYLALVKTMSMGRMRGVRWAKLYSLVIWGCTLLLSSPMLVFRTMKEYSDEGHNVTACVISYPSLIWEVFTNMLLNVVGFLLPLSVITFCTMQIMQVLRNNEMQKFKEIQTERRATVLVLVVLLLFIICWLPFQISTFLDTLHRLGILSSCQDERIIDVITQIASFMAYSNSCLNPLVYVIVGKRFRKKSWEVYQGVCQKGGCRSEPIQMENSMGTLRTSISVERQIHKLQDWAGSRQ
BCHE: Cholinesterase (BCHE, Equus caballus, UniProt P81908)
UniProt P81908, sequence (whole entry, looked up): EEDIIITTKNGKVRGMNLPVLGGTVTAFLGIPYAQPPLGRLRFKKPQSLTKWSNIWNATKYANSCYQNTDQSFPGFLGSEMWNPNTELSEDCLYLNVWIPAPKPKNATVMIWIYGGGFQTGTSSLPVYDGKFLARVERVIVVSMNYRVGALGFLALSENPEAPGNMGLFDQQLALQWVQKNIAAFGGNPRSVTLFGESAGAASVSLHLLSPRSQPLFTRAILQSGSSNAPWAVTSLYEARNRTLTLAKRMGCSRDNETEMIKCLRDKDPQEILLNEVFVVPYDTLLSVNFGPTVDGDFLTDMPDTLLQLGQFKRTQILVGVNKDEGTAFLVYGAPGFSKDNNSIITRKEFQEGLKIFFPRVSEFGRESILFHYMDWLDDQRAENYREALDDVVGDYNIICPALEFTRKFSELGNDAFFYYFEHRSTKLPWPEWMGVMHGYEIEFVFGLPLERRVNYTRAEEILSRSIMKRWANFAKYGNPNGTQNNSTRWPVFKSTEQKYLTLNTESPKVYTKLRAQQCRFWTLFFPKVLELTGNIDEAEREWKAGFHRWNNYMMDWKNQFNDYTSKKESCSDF
UniProt O95819, sequence (whole entry, looked up): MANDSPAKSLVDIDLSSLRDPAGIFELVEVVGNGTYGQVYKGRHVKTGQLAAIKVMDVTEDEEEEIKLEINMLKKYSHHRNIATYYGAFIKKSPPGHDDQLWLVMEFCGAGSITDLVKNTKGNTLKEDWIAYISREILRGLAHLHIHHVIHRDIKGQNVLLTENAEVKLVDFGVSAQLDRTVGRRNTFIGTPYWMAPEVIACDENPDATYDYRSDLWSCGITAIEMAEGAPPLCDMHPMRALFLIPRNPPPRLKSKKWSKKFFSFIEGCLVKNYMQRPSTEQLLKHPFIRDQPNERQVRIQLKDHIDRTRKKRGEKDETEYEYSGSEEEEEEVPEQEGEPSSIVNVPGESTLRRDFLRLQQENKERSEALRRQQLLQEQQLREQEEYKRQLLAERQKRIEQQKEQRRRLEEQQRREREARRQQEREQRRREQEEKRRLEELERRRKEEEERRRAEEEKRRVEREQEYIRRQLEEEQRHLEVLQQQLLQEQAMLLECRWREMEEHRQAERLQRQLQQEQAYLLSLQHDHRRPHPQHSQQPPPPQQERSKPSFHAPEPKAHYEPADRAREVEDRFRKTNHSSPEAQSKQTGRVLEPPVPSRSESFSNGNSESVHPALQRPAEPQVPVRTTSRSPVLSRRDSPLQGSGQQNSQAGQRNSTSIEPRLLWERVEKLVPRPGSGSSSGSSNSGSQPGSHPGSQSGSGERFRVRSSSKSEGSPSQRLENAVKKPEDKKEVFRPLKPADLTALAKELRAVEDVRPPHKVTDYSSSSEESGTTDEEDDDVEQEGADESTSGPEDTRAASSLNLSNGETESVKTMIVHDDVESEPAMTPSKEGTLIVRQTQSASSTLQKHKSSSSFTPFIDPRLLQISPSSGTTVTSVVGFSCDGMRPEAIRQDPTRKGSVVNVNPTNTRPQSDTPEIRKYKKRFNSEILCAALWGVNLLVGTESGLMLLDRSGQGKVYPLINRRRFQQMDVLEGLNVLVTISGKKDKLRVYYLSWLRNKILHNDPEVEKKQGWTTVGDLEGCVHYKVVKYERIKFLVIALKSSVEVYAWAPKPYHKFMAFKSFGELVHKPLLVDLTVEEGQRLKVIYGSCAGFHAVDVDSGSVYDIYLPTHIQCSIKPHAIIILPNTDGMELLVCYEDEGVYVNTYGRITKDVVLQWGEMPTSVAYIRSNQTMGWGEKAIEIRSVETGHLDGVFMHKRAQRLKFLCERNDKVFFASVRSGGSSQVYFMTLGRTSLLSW
UniProt P47898, sequence (whole entry, looked up): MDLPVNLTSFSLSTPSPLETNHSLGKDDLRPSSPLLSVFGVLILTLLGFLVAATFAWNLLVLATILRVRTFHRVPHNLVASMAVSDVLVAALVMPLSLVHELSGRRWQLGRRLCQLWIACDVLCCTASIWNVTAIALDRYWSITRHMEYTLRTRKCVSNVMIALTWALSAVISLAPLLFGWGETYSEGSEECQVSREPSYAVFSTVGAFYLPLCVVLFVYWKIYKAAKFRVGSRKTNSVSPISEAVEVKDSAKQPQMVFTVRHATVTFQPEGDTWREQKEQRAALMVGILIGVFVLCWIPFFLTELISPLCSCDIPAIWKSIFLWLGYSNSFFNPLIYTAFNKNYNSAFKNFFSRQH
UniProt P25101, sequence (whole entry, looked up): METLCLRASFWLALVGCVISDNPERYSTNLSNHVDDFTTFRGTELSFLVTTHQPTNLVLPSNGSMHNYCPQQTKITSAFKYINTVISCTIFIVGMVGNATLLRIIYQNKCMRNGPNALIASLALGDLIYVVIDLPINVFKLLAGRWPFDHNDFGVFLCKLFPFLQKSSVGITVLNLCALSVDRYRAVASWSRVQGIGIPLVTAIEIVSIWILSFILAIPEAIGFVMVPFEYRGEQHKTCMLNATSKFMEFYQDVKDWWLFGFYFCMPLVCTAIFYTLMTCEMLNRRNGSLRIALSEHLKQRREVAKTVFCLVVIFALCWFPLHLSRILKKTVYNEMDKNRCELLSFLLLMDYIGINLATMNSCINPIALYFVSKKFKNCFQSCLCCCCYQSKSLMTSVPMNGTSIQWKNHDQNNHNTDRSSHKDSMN
UniProt Q13547, sequence (whole entry, looked up): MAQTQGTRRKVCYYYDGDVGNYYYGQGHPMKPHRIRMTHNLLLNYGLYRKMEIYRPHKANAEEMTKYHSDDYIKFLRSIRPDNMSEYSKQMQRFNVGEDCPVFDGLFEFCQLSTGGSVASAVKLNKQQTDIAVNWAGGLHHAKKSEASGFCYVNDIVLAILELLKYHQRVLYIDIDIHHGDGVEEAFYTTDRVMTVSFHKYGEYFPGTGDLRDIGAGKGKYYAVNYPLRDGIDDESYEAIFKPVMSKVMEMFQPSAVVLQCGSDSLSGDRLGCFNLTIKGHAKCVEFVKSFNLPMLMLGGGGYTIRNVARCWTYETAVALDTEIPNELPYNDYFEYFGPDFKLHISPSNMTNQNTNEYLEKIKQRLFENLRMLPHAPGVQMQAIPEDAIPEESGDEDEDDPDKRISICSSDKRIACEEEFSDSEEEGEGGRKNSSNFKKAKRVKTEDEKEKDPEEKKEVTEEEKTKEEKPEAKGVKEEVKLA
UniProt P25021, sequence (whole entry, looked up): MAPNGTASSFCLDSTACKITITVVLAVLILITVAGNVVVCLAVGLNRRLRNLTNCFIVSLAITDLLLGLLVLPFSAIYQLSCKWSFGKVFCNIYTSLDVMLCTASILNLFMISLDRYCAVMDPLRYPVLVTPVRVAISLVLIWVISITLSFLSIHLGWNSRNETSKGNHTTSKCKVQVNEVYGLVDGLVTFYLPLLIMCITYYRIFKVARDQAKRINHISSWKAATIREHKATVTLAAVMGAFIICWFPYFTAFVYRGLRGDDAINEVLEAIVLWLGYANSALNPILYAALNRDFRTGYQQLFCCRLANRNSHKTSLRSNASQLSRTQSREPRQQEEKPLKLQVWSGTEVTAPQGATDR

SMILES	target	assay	system	setting	inhibition [%]
Cc1cc(Nc2nc(C[C@@]3(C(=O)O)CCN(Cc4cccc(Cl)c4F)[C@H](C)C3)cc(C)c2F)[nH]n1	Histamine H2 receptor (HRH2, Homo sapiens, UniProt P25021)	inhibitor		10 µM	-3.71
CN[C@@H]1[C@H](O)[C@H](NC)[C@H]2O[C@]3(O)[C@H](O[C@@H]2[C@H]1O)O[C@H](C)C[C@H]3NC(=O)Cc1cc(Cl)ccn1	BDKRB2	ligand displacement, radioligand		10 µM	16
O=C(CN1CN(c2ccccc2)C2(CCN(C(=O)c3cnc4[nH]ncc4c3)CC2)C1=O)NCC(F)(F)F	Epidermal growth factor receptor (EGFR, Homo sapiens, UniProt P00533)	inhibitor		concentration not given	< 50
CN(/N=C/c1ccccc1C(=O)O)c1nc(-c2ccccc2Cl)cs1	BDNF/NT-3 growth factors receptor (NTRK2, Homo sapiens, UniProt Q16620)	enzyme activity, inhibitor		1 µM	-16
Fc1cccc(CN2CCNCC2)c1	BCHE	enzyme activity, inhibitor, Ellman		20 µM	31.4
O=C1c2ccccc2CCCN1CCCCN1CCN(c2cccc(Cl)c2Cl)CC1	5-hydroxytryptamine receptor 5A (HTR5A, Homo sapiens, UniProt P47898)	radioligand binding		concentration not given, added: [3H]LSD	87.8
NCc1ccncc1	BCHE	enzyme activity, inhibitor, Ellman		20 µM	39.1
CCOC(=O)[C@](CC)(CCCSCCOCCOCCNC(=O)c1ccc(-c2c3ccc(=N)c(S(=O)(=O)O)c-3oc3c(S(=O)(=O)O)c(N)ccc23)c(C(=O)O)c1)NC(=O)c1ccc(C2CC2)c(Cc2ccc(F)cc2)n1	GABA-gated chloride channel	specific binding, antagonist radioligand binding		10 µM	30
CC(C)[C@H]1NC(=O)C[C@H]2/C=C/CCSSC[C@@H](NC1=O)C(=O)N[C@H](Cc1cccc3ccccc13)C(=O)NCC(=O)O2	Serine/threonine-protein kinase PAK 6 (PAK6, Homo sapiens, UniProt Q9NQU5)	enzyme activity, inhibitor		10 µM	-19.6
CC(=O)NC[C@@H]1[C@@H](O)C[C@H]2[C@H](O)C[C@@H](CO)N12	Spodoptera litura β-N-acetylglucosaminidase		crude enzyme	0.428 µM, run 2, added: p-nitrophenyl GlcNAc	49.8
CCCN	BCHE	enzyme activity, inhibitor, Ellman		20 µM	38.1
O=C(CCCCCCC(=O)Nc1ccccc1)NO	Histone deacetylase 1 (HDAC1, Homo sapiens, UniProt Q13547)	enzyme activity, inhibitor		1 µM	92.1
C[C@H](NCc1ccc(-c2ccc(C(F)(F)F)cc2)cc1)C(N)=O	Phosphatidylinositol 4-phosphate 3-kinase C2 domain-containing subunit beta (PIK3C2B, Homo sapiens, UniProt O00750)	cell-free assay, competition with immobilised ligand		1 µM	2
CN(C)[C@H]1C[C@@]23CC[C@@]4(O2)C(=CC[C@]2(C)[C@@H](c5ccc6ccncc6c5)CC[C@H]24)C=C3[C@@H](O)[C@@H]1O	Diacylglycerol kinase eta (DGKH, Homo sapiens, UniProt Q86XP1)	ATP probe labelling, inhibitor, KiNativ profiling		0.1 µM	-2.4
N[C@H](C(=O)N1CCCC1)C1CCN(c2nccc3c(-c4ncc(Cl)cc4Cl)cccc23)CC1	Mitogen-activated protein kinase kinase kinase kinase 4 (MAP4K4, Homo sapiens, UniProt O95819)	kinase activity, inhibitor		10 µM, added: ATP 1 mM	-16.7
O=C(O)c1ccccc1/C=N/Nc1nc(-c2ccccc2Cl)cs1	Macrophage-stimulating protein receptor (MST1R, Homo sapiens, UniProt Q04912)	enzyme activity, inhibitor		1 µM	-15.7
CN[C@@H]1[C@H](O)[C@H](NC)[C@H]2O[C@]3(O)[C@H](O[C@@H]2[C@H]1O)O[C@H](C)C[C@H]3NC(=O)Cc1ccc(Cl)cn1	Glutamate receptor ionotropic, NMDA 1 (Grin1, Rattus norvegicus, UniProt P35439)			10 µM	6
N#Cc1ccc(N2N=C3c4ccc(C(=O)O)cc4CCC3C2C2CCCC2)cc1Cl (stereo not shown)	MLL4-WDR5 complex			10 µM	24
C1COCCN1	BCHE	enzyme activity, inhibitor, Ellman		20 µM	39.2
CS(C)(=O)=Nc1ccc(-c2ccc(-c3nc4cc(O[C@@H]5CO[C@H]6[C@@H]5OC[C@H]6O)[nH]c4cc3F)cc2)cc1	Somatostatin receptor type 1 (SSTR1, Homo sapiens, UniProt P30872)	calcium signal, antagonist		10 µM	-2
CCc1nnc(-c2c(OC)cc(-c3cnc4cc(-c5cnn(C)c5)ccn34)cc2OC)o1	Endothelin-1 receptor (EDNRA, Homo sapiens, UniProt P25101)	agonist radioligand, radioligand binding		10 µM, SafetyScreen44 ETA	4
COc1ccc(F)cc1S(=O)(=O)Nc1cnc2c(c1)C(=O)NCCO2	BDKRB2	ligand displacement, radioligand		10 µM	-3

Repeated from above:
SMILES	target	assay	system	setting	inhibition [%]
CN[C@@H]1[C@H](O)[C@H](NC)[C@H]2O[C@]3(O)[C@H](O[C@@H]2[C@H]1O)O[C@H](C)C[C@H]3NC(=O)Cc1ccc(Cl)cn1	Glutamate receptor ionotropic, NMDA 1 (Grin1, Rattus norvegicus, UniProt P35439)			10 µM	6
